Assay results pooled from the literature.
A part holds a random share of what one study measured.

Sample 1 — method: protein-binding microarray; form: double-stranded DNA, one strand shown; matrix: in vitro; tested at: 250 nM; setting: 60-bp whole probe; together with: salmon DNA 0.4 mg/ml; relative to: random background probes; reading: higher = stronger binding; constant ends, left off below: GCCTAGCAC … GTCTTGATTCGCTTGACGCTGCTG
Target: Interferon regulatory factor 5, full length, phosphomimetic (IRF5, Homo sapiens, UniProt Q13568-2, residues 1-514, K96S/S451D/S453D/S456D/S462D)
| Oligonucleotide | log fluorescence [z-score] |
| --- | --- |
| ATATTGATGGCTCTCTGGACGTGCTAG | 0.0227 |
| GACGGTCTCCTACTGATGACGTGCTAG | -0.389 |
| GACGGCCTCGGTCTCGGGACGTGCTAG | -0.59 |
| GACGGTCTCGCTTTCGGGACGTGCTAG | 3.17 |
| TTAGGACTGGACTAGCGGTTAGTGCTA | -0.293 |
| GTAGGACTGGACACTGGGTTAGTGCTA | -0.958 |
| GACGATATCGGGACTGAAGACGTGCTA | 1.07 |
| TCACATGTAAATAATCAGACTGTGCTA | 0.422 |
| TTAGATTTCAGTATCGTTTAGTGCTAG | 5.65 |
| TCATTTTCCTTATTGCTTACTGTGCTA | 2 |
| TTTACTTTCTATGTCTGTTTGTGCTAG | 6.72 |
| TTAGATCCCAGTATCGATTAGTGCTAG | 7.01 |
| GCCGGTTTCCTTATCCTGACGTGCTAG | 0.759 |
| GTGTGTTTGTGTGTGTATGTGTGCTAG | 0.0897 |
| TTGGGTATCGGACTGGGTTAGTGCTAG | 1.19 |
| GAACCTTCCCCTCTAGGTTCGTGCTAG | 0.255 |
| CATCGTAAGCAAAAATGATTGTGCTAG | 0.639 |
| TAAGAACTGAGTTTCGATTAGTGCTAG | 9.53 |
| TTAGATTTCGGGACTGCATTAGTGCTA | 2.83 |

Sample 2 — method: RNA Bind-n-Seq; form: RNA; matrix: in vitro; tested at: 365 nM; relative to: no-protein control; reading: higher = stronger binding
Target: RNA binding protein fox-1 homolog 2, RRM domain, GST-SBP tag (RBFOX2, Homo sapiens, UniProt O43251-10, residues 100-194)
Setting: natural RNA segment, single round, ends assumed
Residues (chain): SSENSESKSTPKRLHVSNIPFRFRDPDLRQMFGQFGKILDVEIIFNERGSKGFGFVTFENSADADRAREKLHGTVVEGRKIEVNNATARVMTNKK
| Oligonucleotide | RBNS enrichment (R) |
| --- | --- |
| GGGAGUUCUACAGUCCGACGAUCUGGCAUAUCUUUGUUUGAAGUUUGUUGGUGAUUCCACCAAACUGGUGUAAAAAACAAAAACAAAAAAACCCACAAACCACCCAAAACUCACAAAAAAAAUCCUGCUUGUAUGGAAUUCUCGGGUGCCAA | 1.14 |
| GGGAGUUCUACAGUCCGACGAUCGGCCACUCUGUGAAUACAUGAUCUUGCAAUGUUGGGUUAUUCCAGCCAAAGACAUUUCAAGUGCCUGUAACUGAUUUGUCCAUAUUUAUAAACACUGAUCUGGAAAUUGGUGGAAUUCUCGGGUGCCAA | 0.539 |
| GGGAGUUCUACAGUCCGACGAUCCAGACUCUGCGCUUUAUCUGUCUAUGGUGAAGGAUAGGGCGCAAUCACUUUAAUUGUAAUGAUAGAUAAAUAAGACAGGACAAACUACAGUUUGUCUCAGAGGAAUCCAAUGGAAUUCUCGGGUGCCAA | 0.465 |
| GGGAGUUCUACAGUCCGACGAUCGCUGUUAAAAGUUGGUAUCAGUAAGAUUUGUGUUUUGUGAUAAUCCCUAAAUCAACAUACCACUUGUAAACUGAACUUCGAGAAAGAAACAUGAUGUUCAUUCUGUAAAUUGGAAUUCUCGGGUGCCAA | 0.356 |
| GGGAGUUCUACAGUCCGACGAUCGCAAAAUGUCUGUGGAGAUGGAUGGACUGAAAGAGCCGGAUUCCUCACACACAGGGGCAGCCAGUGCUUCUGGGGCCCUGGUUGGGGUUCACCCGAGAUGCCCAGGGGUAUGGAAUUCUCGGGUGCCAA | 0.548 |
| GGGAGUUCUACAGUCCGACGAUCAUGAGGAUCCUGAUCCUCUUUUGUCCUCUCCAGGUAGUCUCGCAGGUUAUGCAGCUUAAGUUCAGUCUUCUUUAUGCUGCGAUUGAUUUCCACCUCAGUGGCUUAGCCUUUGGAAUUCUCGGGUGCCAA | 0.272 |
| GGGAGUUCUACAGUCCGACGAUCUGUGCUAUUGUGUGCGUGGUUGCUGAGACAAAAACUGGGACAAAGCAACUUACAGAGGGUAUUUUAGCUCAGUUCAGGUGUGGGGUCCACAGUGCUGAGGAAAUCAUAGUUGGAAUUCUCGGGUGCCAA | 0.78 |
| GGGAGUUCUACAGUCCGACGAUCACCAAGUCCAGAUUUGUGUGUAAGCAGCUGGGUGCCUGGGGCCUCUCGUGCACACUGGAUUGGUUUCUCAGUUGCUGGGCGAGCCUGUACUCUGCCUGACGAGGAACGCUUGGAAUUCUCGGGUGCCAA | 0.931 |

Sample 3 — method: protein-binding microarray; form: hairpin DNA; matrix: in vitro; tested at: not given; relative to: not given; reading: higher = stronger binding
Target: Homeobox protein Hox-C11, full length (HOXC11, Homo sapiens, UniProt O43248, residues 1-304)
Chain of UniProt O43248 (whole entry, looked up): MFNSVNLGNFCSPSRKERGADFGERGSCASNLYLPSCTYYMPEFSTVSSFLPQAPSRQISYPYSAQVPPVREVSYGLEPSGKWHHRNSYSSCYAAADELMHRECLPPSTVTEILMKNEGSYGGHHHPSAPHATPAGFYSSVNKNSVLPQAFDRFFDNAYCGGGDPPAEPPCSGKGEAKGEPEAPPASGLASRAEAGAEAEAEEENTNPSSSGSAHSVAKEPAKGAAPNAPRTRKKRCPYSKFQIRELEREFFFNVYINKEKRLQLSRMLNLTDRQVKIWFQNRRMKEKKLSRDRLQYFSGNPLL
Setting: whole hairpin DNA, median over replicate spots
| Oligonucleotide | median fluorescence |
| --- | --- |
| GAGGCCAGGTCGTACGAGCCTCCTGGCTCGTACGACCTGGCCTCACACTC (5mC at 15) | 9850 a.u. |
| GAGGCCAGGTCGTTAAAGCCTCCTGGCTTTAACGACCTGGCCTCACACTC (5mC at 11 33) | 10600 a.u. |
| GAGGCCAGGTCGTCGAAGCCTCCTGGCTTCGACGACCTGGCCTCACACTC (5mC at 30) | 11100 a.u. |
| GAGGCCAGCTCGTAAAAGCCTCCTGGCTTTTACGAGCTGGCCTCACACTC | 9520 a.u. |
| GAGGCCAGGTCGTTAAAGCCTCCTGGCTTTAACGACCTGGCCTCACACTC (5mC at 37) | 10600 a.u. |
| GAGGCCAGGTCGCGAAAGCCTCCTGGCTTTCGCGACCTGGCCTCACACTC (5mC at 31) | 11500 a.u. |
| GAGGCCAGGTCGTAAGAGCCTCCTGGCTCTTACGACCTGGCCTCACACTC | 10300 a.u. |
| GAGGCCAGGTCGTACAAGCCTCCTGGCTTGTACGACCTGGCCTCACACTC (5mC at 15) | 9710 a.u. |
| GAGGCCCGGTCGTTAAAGCCTCCTGGCTTTAACGACCGGGCCTCACACTC (5mC at 37) | 10400 a.u. |
| GAGGCCAGGCGGTTAAAGCCTCCTGGCTTTAACCGCCTGGCCTCACACTC | 10200 a.u. |
| GAGGCCATGTCGTAAAAGCCTCCTGGCTTTTACGACATGGCCTCACACTC | 9290 a.u. |
| GAGGCCAGGTCGTTAAAGCCTCCTGGCTTTAACGACCTGGCCTCACACTC (5mC at 11) | 10400 a.u. |
| GAGGCCACGTCGTTAAAGCCTCCTGGCTTTAACGACGTGGCCTCACACTC (5mC at 8) | 8810 a.u. |
| GAGGCCAGGTCGTACGAGCCTCCTGGCTCGTACGACCTGGCCTCACACTC (5mC at 29) | 11000 a.u. |
| GAGGCCAGGTCGTGAAAGCCTCCTGGCTTTCACGACCTGGCCTCACACTC (5mC at 31) | 10900 a.u. |

Sample 4 — method: RNA Bind-n-Seq; form: RNA; matrix: in vitro; tested at: not given; relative to: input RNA pool; reading: higher = stronger binding
Target: RING finger protein unkempt homolog, zinc fingers 1-6, GST-SBP tag (UNK, Homo sapiens, UniProt Q9C0B0, residues 30-357)
Chain of UniProt Q9C0B0 (30-357, looked up): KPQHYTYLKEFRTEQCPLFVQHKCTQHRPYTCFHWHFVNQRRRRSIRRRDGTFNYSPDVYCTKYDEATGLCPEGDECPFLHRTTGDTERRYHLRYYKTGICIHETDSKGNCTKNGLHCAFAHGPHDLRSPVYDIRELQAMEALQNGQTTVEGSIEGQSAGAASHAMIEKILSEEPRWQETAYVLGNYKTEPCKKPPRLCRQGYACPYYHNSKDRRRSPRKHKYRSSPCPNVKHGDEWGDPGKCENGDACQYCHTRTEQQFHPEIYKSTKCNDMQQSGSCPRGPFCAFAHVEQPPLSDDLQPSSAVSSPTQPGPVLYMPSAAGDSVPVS
Setting: RNA with constant flanks, human and mouse sites, ends assumed
| Oligonucleotide | bound/input enrichment [ratio] |
| --- | --- |
| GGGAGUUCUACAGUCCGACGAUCCGGAAUCUGCUGGCUCUUCGUCAGAUUGGGCAGAGGACGAUAAGCACUGCUUCCCGCAGGCAUUUUAAAAAUAAAGUUCCGGAGAAGCAAAAACUGUUCCAGGAGGAUGAUGAAAUUCCACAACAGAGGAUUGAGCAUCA | 0.159 |
| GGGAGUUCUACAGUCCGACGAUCUGUGUCUGGUGUCUGUCUGUCUCUCUCUGUGUCUGUCUCUGACUCUCUCUCUUUCUCUGUAUGUGUGUGUGUGUGUGUCUGUCUGUCUCUGUCUCUCUUUCUCUUUCUCUUUGGUGGCUACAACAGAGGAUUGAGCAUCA | 0.655 |
| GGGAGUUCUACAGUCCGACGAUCAAGAAAAAGAAAAUGCCGAAGCCAAUCAAUGUAAGAGUAACUACAAUGGACGCUGAGCUAGAAUUUGCCAUCCAGCCCAAUACAACUGGCAAACAACUUUUUGACCAGGUUGUAAAAACACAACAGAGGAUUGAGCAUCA | 0.354 |
| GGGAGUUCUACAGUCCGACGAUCGCAGUUAAGAAGCUGGGCGCGUCGAGGACUGGGAUUUCAAAUAUGCGUGCAUUAGAGAAUGACUUUUUCAAUUCUCCCCCAAGAAAAACUGUUCGGUUUGGUGGAACUGUGACAGAAGUCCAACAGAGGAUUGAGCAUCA | 0.464 |
| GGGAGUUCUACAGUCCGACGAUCAGAUUCAUACUUUAAAGGCAUUGAUAUGCAUUUAUAUCAGGUAAGCAACUAUACAGAUCUGCUGAGAGCUUUGAAAAGAAUCUUUUAUCAGCAAAAAGAAAUAGGGGGAGCCUGAGUAUUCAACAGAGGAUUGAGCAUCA | 0.206 |
| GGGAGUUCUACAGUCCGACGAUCUUCUAAAGGGCUCAAAACAAGGCACAGGCCAGCUGACUCGUGACUUGGUGUCUGUAACUGCUUAGUGGGUGCUCUGAUUUGGUGCGUGUUAUGAAGGGAGGGGGUCCCUGUACCCCUAUCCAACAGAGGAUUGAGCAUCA | 0.314 |
| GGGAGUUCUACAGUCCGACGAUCGGAGGAAUUGUCCUGGUCUUGGGUGUGCAGGCUGUAAUUUUCUUUCUUUAUAAAUUCUGCAAAUCUAAAGAACGAAAUUACCACACUCUGUAAACAGACCCAUUGAAUUAAUAAGGACUGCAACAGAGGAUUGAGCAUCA | 0.281 |
| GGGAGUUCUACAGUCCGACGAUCACCAUGCACAAUUUUGUACGGAAGACCUUCUUCAGCCUGGCGUUCUGUGACUUCUGCCUUAAGUUUCUGUUCCAUGGCUUCCGUUGCCAAACCUGUGGCUACAAGUUCCACCAGCAUUGUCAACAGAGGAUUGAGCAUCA | 0.132 |

Repeated from above (sample 1):
| Oligonucleotide | log fluorescence [z-score] |
| --- | --- |
| TCACATGTAAATAATCAGACTGTGCTA | 0.422 |
| TTAGATTTCAGTATCGTTTAGTGCTAG | 5.65 |
| TCATTTTCCTTATTGCTTACTGTGCTA | 2 |
| TTTACTTTCTATGTCTGTTTGTGCTAG | 6.72 |
| TTAGATCCCAGTATCGATTAGTGCTAG | 7.01 |
| GCCGGTTTCCTTATCCTGACGTGCTAG | 0.759 |
